Published values of several laboratories.
Compare with care: the assays were run in different laboratories. Numbers after ± are the reported error. In brackets after ≈: the same amount, converted by molar mass.
Sequence of UniProt P07339 (whole entry, looked up): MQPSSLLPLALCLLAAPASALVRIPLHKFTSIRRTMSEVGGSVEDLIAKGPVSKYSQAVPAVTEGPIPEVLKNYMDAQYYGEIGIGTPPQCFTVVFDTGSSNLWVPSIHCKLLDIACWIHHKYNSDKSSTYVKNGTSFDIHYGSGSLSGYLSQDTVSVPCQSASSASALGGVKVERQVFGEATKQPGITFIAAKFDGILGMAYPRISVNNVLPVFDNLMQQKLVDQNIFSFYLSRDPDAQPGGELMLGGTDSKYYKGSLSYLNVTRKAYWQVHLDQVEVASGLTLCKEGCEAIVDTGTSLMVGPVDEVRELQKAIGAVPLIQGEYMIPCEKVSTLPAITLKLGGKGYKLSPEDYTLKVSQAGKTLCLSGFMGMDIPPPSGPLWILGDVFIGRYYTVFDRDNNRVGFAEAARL
Sequence of UniProt O15111 (whole entry, looked up): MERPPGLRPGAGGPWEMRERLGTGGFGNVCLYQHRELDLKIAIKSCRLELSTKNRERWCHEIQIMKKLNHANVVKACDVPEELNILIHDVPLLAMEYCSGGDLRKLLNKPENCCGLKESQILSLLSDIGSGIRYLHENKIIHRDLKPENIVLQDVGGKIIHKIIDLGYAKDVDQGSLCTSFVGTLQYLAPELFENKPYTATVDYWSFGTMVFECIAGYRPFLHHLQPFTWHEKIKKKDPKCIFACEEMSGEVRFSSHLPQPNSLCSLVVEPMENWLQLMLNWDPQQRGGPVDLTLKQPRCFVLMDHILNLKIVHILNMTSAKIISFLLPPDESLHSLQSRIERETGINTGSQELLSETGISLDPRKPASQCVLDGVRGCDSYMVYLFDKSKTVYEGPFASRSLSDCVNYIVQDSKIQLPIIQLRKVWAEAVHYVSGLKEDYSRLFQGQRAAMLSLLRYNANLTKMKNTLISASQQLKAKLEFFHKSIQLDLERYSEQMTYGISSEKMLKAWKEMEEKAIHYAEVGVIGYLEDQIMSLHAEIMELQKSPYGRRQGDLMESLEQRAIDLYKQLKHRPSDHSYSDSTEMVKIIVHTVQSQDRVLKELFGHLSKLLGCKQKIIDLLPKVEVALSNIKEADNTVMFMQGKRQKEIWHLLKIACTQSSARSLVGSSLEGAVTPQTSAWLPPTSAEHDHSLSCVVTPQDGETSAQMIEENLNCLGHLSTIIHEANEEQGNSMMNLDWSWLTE

[Cl-].[Cl-].[Pt+2].[Ru+2].c1ccc(-c2nc3cc4ccccc4cc3nc2-c2ccccn2)nc1.c1cnc2c(c1)ccc1cccnc12.c1cnc2c(c1)ccc1cccnc12 has a survival rate of 93.3 ± 3% (Danio rerio; embryos; 30 µM, 12 h).
For CC(C)N(C)N=O, “revertant colonies per plate” read 12.7 ± 2 (Salmonella typhimurium; mutagenicity, Ames plate incorporation; TA1537; 150 µg/plate, 3 d, without S9, methanol).
With O=[N+]([O-])c1ccc(N2CCN(CCC(O)c3ccc(F)cc3)CC2)c(C(F)(F)F)c1 (stereo not shown) the induction factor was 0.9 (Salmonella typhimurium; genotoxicity, SOS/umu test; TA1535/pSK1002; 0.031 mg/mL, 4 h, with S9, lower range).
COc1cc2c(Oc3ccc4[nH]c(C)cc4c3F)ccnc2cc1OCC1(N)CC1: “grade 1 or 2 abdominal pain” 25% (paediatric recurrent refractory sarcoma; 8 mg).
For CC[C@H](C)[C@H](NC(=O)[C@H](CCCCN)NC(=O)[C@@H](NC(=O)[C@H](Cc1ccc(O)cc1)NC(=O)[C@H](CCCCN)NC(=O)[C@H](CCCCN)NC(=O)CNC(=O)[C@H](CCCCN)NC(=O)[C@@H](NC(=O)[C@H](C)NC(=O)[C@H](CC(C)C)NC(=O)[C@H](Cc1c[nH]c2ccccc12)NC(=O)CNC(=O)[C@@H](NC(=O)[C@H](Cc1ccccc1)NC(=O)[C@H](CCCCN)NC(=O)[C@H](CC(C)C)NC(=O)[C@H](Cc1ccccc1)NC(=O)[C@H](C)NC(=O)CNC(=O)[C@@H](N)CCSC)C(C)C)[C@@H](C)O)C(C)C)C(=O)N[C@@H](C)C(=O)N[C@@H](Cc1c[nH]c2ccccc12)C(=O)N[C@@H](CC(=O)O)C(=O)N[C@@H](Cc1c[nH]cn1)C(=O)N[C@@H](CCCCN)C(=O)NCC(=O)N[C@H](C(=O)N[C@H](C(=O)N[C@@H](CCSC)C(=O)N[C@@H](CCCCN)C(=O)N[C@@H](Cc1c[nH]c2ccccc12)C(=O)N[C@@H](CC(C)C)C(=O)N[C@@H](CC(N)=O)C(=O)N[C@@H](C)C(=O)NCC(=O)N[C@@H](CCC(N)=O)C(=O)N[C@H](C(=O)N[C@@H](Cc1ccccc1)C(=O)N[C@H](C(=O)N[C@@H](Cc1c[nH]c2ccccc12)C(=O)N[C@H](C(=O)N[C@@H](Cc1ccc(O)cc1)C(=O)N[C@@H](CCC(=O)O)C(=O)N[C@@H](CCC(N)=O)C(=O)N[C@H](C(=O)N[C@@H](CCCCN)C(=O)N[C@@H](CCCCN)C(=O)N[C@@H](CC(C)C)C(=O)N[C@@H](Cc1c[nH]c2ccccc12)C(=O)N[C@H](C(=O)O)[C@@H](C)O)[C@@H](C)CC)C(C)C)[C@@H](C)O)[C@@H](C)O)[C@@H](C)CC)[C@@H](C)O, the MIC was 98 µg/mL (≈ 16.2 µM) (Pediococcus damnosus; CECT 4797; after room temperature exposure).
For COc1ccnc(C(=O)N[C@H]2COC(=O)[C@H](Cc3ccccc3)[C@@H](OC(=O)C(C)C)[C@H](C)OC2=O)c1OCOC(=O)C(C)C, the NOEC was > 522 µg/L (Pseudokirchneriella subcapitata; growth; concentration not given, 72 h, static test).
[Cl-].[Cl-].[Pt+2].[Ru+2].c1ccc(-c2nccnc2-c2ccccn2)nc1.c1cnc2c(c1)ccc1cccnc12.c1cnc2c(c1)ccc1cccnc12 gave a survival rate of 33.3 ± 2.6% (Danio rerio; embryos; 90 µM, 96 h).
Under “revertant colonies per plate”, COc1cccc(-c2n[nH]c(SCc3ccccn3)n2)c1OC is recorded as 26 (Salmonella typhimurium; Ames test, plate incorporation; TA98; 0.25 mg/plate, with rat liver S9).
For C[C@]1(CO)Cc2ncn(-c3ccc(C#N)c(Cl)c3)c2C(=O)O1, the Tmax was 2 h (human; oral, 10 mg, fed, single dose, median).
Under “MIC after heating”, CC[C@H](C)[C@@H]1NC(=O)[C@H](CO)NC(=O)[C@H](CCSC)NC(=O)CNC(=O)[C@H](C)NC(=O)[C@H]([C@@H](C)CC)NC(=O)[C@@H](NC(=O)[C@@H](NC(=O)[C@@H](NC(=O)[C@H](C)NC(=O)[C@H](CCCCN)NC(=O)[C@H](C)NC(=O)[C@H](Cc2c[nH]c3ccccc23)NC(=O)[C@H](CC(=O)O)NC(=O)[C@@H](NC(=O)[C@@H](NC(=O)[C@@H]2CSSC[C@H](NC(=O)[C@H](Cc3ccc(O)cc3)NC(=O)[C@@H](NC(=O)CNC(=O)[C@H](CC(N)=O)NC(=O)CNC(=O)[C@H](Cc3ccc(O)cc3)NC(=O)[C@H](Cc3ccc(O)cc3)NC(=O)[C@H](CCCCN)NC(=O)CNC(=O)[C@H](CO)NC(=O)[C@H](Cc3c[nH]cn3)NC(=O)[C@@H](NC(=O)[C@@H](N)[C@@H](C)O)[C@@H](C)O)C(C)C)C(=O)N[C@@H]([C@@H](C)O)C(=O)N[C@@H](CCCCN)C(=O)N[C@@H](CC(N)=O)C(=O)N[C@@H](CCCCN)C(=O)N2)[C@@H](C)O)C(C)C)[C@@H](C)O)[C@@H](C)O)CSSC[C@@H](C(=O)O)NC(=O)[C@H](CCCCN)NC(=O)CNC(=O)[C@@H]2CCCN2C(=O)[C@H]([C@@H](C)CC)NC(=O)[C@H](C)NC(=O)CNC(=O)CNC(=O)[C@H](CC(C)C)NC(=O)[C@H](Cc2ccccc2)NC(=O)CNC(=O)CNC1=O (single isomer, unassigned) is recorded as > 6 µg/mL (Pediococcus damnosus; CECT 4797; 15 min, 121 °C).
O=C1c2c(O)c(=O)ccn2N([C@@H]2c3ccccc3SCc3c2ccc(F)c3F)[C@@H]2COCCN12 gave a Cmax of 18.4 ng/mL (BALB/c mouse; subcutaneous, 0.25 mg/kg q12h).
CN1CC[C@@H](c2c(O)cc(O)c3c(=O)cc(-c4ccc(C(F)(F)F)cc4Cl)oc23)[C@@H]1CO: “patients with adverse event” 5% (item: Hypoalbuminemia; relapsed or refractory haematological malignancies; oral, dose not given, grade 3 to 4, all arms).
For CO[C@H]1C[C@@H]2CC[C@@H](C)[C@@](O)(O2)C(=O)C(=O)N2CCCC[C@H]2C(=O)O[C@H]([C@H](C)C[C@@H]2CC[C@@H](OC(=O)NCCOCCOCCOCCOCCOCCOCCOCCOCCC(=O)N3CCc4cc(Cn5nc(-c6ccc7oc(N)nc7c6)c6c(N)ncnc65)ccc4C3)[C@H](OC)C2)C[C@@H](O)[C@H](C)/C=C(\C)[C@@H](O)[C@@H](OC)C(=O)[C@H](C)C[C@H](C)/C=C/C=C/C=C/1C, “AE leading to dose interruption” read 56.3% (patients with advanced solid tumours; intravenous, 8 mg weekly, any grade).
CCCCCCCCCCCCCCCC(=O)OCC(CSC[C@H](N)C(=O)N[C@@H](CO)C(=O)N[C@@H](CCCCN)C(=O)N[C@@H](CCCCN)C(=O)N[C@@H](CCCCN)C(=O)N[C@@H](CCCCN)C(=O)Nc1ccc(Cn2c(O)nc3c(N)nc(NCCCC)nc32)cc1)OC(=O)CCCCCCCCCCCCCCC (stereo partly shown) has a viability of 107% (HFF-1; 10 µg/mL, 48 h).
For COCCN(CCOC)N=O, “revertant colonies per plate” read 16 ± 3 (Salmonella typhimurium; mutagenicity, Ames plate incorporation; TA1537; 150 µg/plate, 3 d, without S9, methanol).
CC(=O)N1CCC(C(=O)N2CCN3C(=O)c4cc(-c5ccccc5)ccc4NC(=O)C3C2)CC1 (stereo not shown): “revertants per plate” 108 (Salmonella typhimurium; TA100; 50 µg/plate, with rat liver S9).
Cc1cc(C(=O)NC(C)(C)COc2cccc3c2C(N)=NS(=O)(=O)N3)cc(C)n1 has a revertant ratio of 1 (Escherichia coli; Ames test, initial; WP2 uvrA; 5.00 µg/plate, together with: rat liver S9; relative to: solvent control).
The LC50 of COc1ccnc(C(=O)N[C@H]2COC(=O)[C@H](Cc3ccccc3)[C@@H](O)[C@H](C)OC2=O)c1O is reported as > 2 µg/mL (Oncorhynchus mykiss; mortality, static-renewal water exposure; 96 h).
For CNC(=O)c1c(N(C)N=O)ncn1C, “revertant colonies per plate” read 31.7 ± 4 (Salmonella typhimurium; plate incorporation; TA1535, water; 2500 µg/plate, without S9).
O=[N+]([O-])c1ccc(N2CCC(NCCC(O)c3ccc(F)c4ccccc34)CC2)c(C(F)(F)F)c1 (stereo not shown) has an induction factor of 1 (Salmonella typhimurium; SOS response, SOS/umu test; TA1535/pSK1002, TGA medium; 1.53e-05 mg/mL, 4 h, together with: 10% rat liver S9; relative to: untreated).
CC(C)CC(=O)OC[C@H]1O[C@@](C#N)(c2ccc3c(N)ncnn23)[C@H](O)[C@@H]1O has a selectivity index of > 222 (human respiratory syncytial virus; viral replication, viral protein ELISA; HEp-2, A2; 5 days; relative to: CC50 over EC50).
The IC50 of COc1cc(Nc2ncc(F)c(Nc3ccc4c(n3)NC(=O)C(C)(C)O4)n2)cc(OC)c1OC is reported as > 10 µM (Cathepsin D (CTSD, Homo sapiens, UniProt P07339)).
For C[C@H]1CN(c2n[nH]c3nc(N[C@H]4CC[C@H](NS(=O)(=O)CCC(F)(F)F)CC4)ncc23)CCO1, the relative abundance was 1.09 (CHUK (Homo sapiens, UniProt O15111); inhibitor, Kinobeads competition profiling; 0.8 µM; relative to: vehicle).
CC(C)C[C@@H]1NC(=O)[C@H](CC(C)C)NC(=O)[C@H](Cc2c[nH]c3ccccc23)NC(=O)[C@H](CO)NC(=O)[C@H](Cc2c[nH]c3ccccc23)NC(=O)[C@@H]2CCCN2C(=O)[C@H](CC(C)C)NC(=O)[C@H](Cc2c[nH]cn2)NC(=O)[C@@H]2CCCN2C(=O)[C@H](CC(N)=O)NC(=O)[C@H](C)NC(=O)[C@H](Cc2ccc(O)cc2)NC(=O)[C@H](CS)NC(=O)[C@H](CCCCNC(=O)CN2CCN(CC(=O)O)CCN(CC(=O)O)CCN(CC(=O)O)CC2)NC1=O [lutetium-177 labelled] has a tissue uptake of 0.08 ± 0.04 %ID (Balb/c mouse, female, 4T1 tumour, spleen; intravenous, 3.7 MBq, 4 h).
With CNC(=O)Oc1ccccc1OC(C)C the mortality was 100% (Anopheles gambiae; concentration not given, 1 h).
For Fc1ccc(C2=CCNCC2)cc1, the induction factor was 1.3 (Salmonella typhimurium; SOS response, SOS/umu test; TA1535/pSK1002, TGA medium; 0.5 mg/mL, 4 h, together with: 10% rat liver S9; relative to: untreated).
The hatching rate of [Cl-].[Cl-].[Pt+2].[Ru+2].c1ccc(-c2nc3ccccc3nc2-c2ccccn2)nc1.c1cnc2c(c1)ccc1cccnc12.c1cnc2c(c1)ccc1cccnc12 is reported as 20 ± 4.4% (Danio rerio; embryos; 60 µM, 72 h).
With COc1ccc(C[C@H](NC(=O)[C@H](C)NC(=O)CN2CCOCC2)C(=O)N[C@@H](Cc2ccccc2)C(=O)C2(C)CO2)cc1 (stereo in doubt) the selectivity ratio was > 19700 (Plasmodium falciparum; Dd2, chloroquine-resistant; relative to: HEK-293T CC50 over IC50).

Excerpt of the above:
Cc1cc(C(=O)NC(C)(C)COc2cccc3c2C(N)=NS(=O)(=O)N3)cc(C)n1 has a revertant ratio of 1 (Escherichia coli; Ames test, initial; WP2 uvrA; 5.00 µg/plate, together with: rat liver S9; relative to: solvent control).
The LC50 of COc1ccnc(C(=O)N[C@H]2COC(=O)[C@H](Cc3ccccc3)[C@@H](O)[C@H](C)OC2=O)c1O is reported as > 2 µg/mL (Oncorhynchus mykiss; mortality, static-renewal water exposure; 96 h).
